Published values of several laboratories.
Compare with care: the assays were run in different laboratories. Numbers after ± are the reported error.

`N=C(N)NCCC[C@@H]1NC(=O)[C@H](CCCCNC(=O)CC[C@H](NC(=O)CC[C@H](NC(=O)CN2CCN(CC(=O)O)CCN(CC(=O)O)CCN(CC(=O)O)CC2)C(=O)N[C@@H](CCC(=O)NCCCC[C@@H]2NC(=O)[C@@H](Cc3ccccc3)NC(=O)[C@H](CC(=O)O)NC(=O)CNC(=O)[C@H](CCCNC(=N)N)NC2=O)C(=O)NCCCC[C@@H]2NC(=O)[C@@H](Cc3ccccc3)NC(=O)[C@H](CC(=O)O)NC(=O)CNC(=O)[C@H](CCCNC(=N)N)NC2=O)C(=O)NCCCC[C@@H]2NC(=O)[C@@H](Cc3ccccc3)NC(=O)[C@H](CC(=O)O)NC(=O)CNC(=O)[C@H](CCCNC(=N)N)NC2=O)NC(=O)[C@@H](Cc2ccccc2)NC(=O)[C@H](CC(=O)O)NC(=O)CNC1=O` [indium-111 labelled] gave a tissue uptake of 1.22 ± 0.45 %ID/g (female athymic nu/nu mice, muscle; intravenous, 111 kBq, 1 h).
`Cc1cc(-c2ccc(NC(=O)[C@H](CCCCNC(=O)CCOCCOCCC(=O)N[C@H](Cc3ccccc3)C(=O)N[C@H]3CSSC[C@@H](C(=O)N[C@H](C(=O)O)[C@@H](C)O)NC(=O)[C@H]([C@@H](C)O)NC(=O)[C@H](CCCCN)NC(=O)[C@@H](Cc4c[nH]c5ccccc45)NC(=O)[C@H](Cc4ccc(O)cc4)NC3=O)NC(=O)CN3CCN(CC(=O)O)CCN(CC(=O)O)CCN(CC(=O)O)CC3)c(C)c2)ccc1N=Nc1ccc2c(S(=O)(=O)O)cc(S(=O)(=O)O)c(N)c2c1O` [lutetium-177 labelled]: “tumour absorbed dose ratio” 3 fold (patients with metastatic neuroendocrine tumours, all tumour lesions; baseline: compound over 177Lu-EB-TATE).
`CCCC[C@H](NC(=O)CCCCCCCNC(=O)CN1CCN(CC(=O)O)CCN(CC(=O)O)CC1)C(=O)N[C@H]1CC(=O)NCCCC[C@@H](C(N)=O)NC(=O)[C@H](Cc2c[nH]c3ccccc23)NC(=O)[C@H](CCCNC(=N)N)NC(=O)[C@@H](Cc2ccccc2)NC(=O)[C@H](Cc2c[nH]cn2)NC1=O` [copper-64 labelled] gave a tissue uptake of 0.13 ± 0.13 %ID/g (C57 mice, bone; intravenous, 0.37 MBq, 2 h).
With `CCCC[C@H](NC(=O)CNC(=O)CNC(=O)CN1CCN(CC(=O)O)CCN(CC(=O)O)CCN(CC(=O)O)CC1)C(=O)N[C@H]1CC(=O)NCCCC[C@@H](C(N)=O)NC(=O)[C@H](Cc2c[nH]c3ccccc23)NC(=O)[C@H](CCCNC(=N)N)NC(=O)[C@@H](Cc2ccccc2)NC(=O)[C@H](Cc2c[nH]cn2)NC1=O` [lutetium-177 labelled] the tissue uptake was 1.21 ± 0.19 %ID/g (C57 mouse, female, spleen; intravenous, 0.037 MBq, 0.5 h).
`CN1C(=O)[C@@H](Cc2ccc(O)cc2)NC(=O)CNC(=O)[C@H](Cc2ccc3ccccc3c2)NC(=O)[C@H](CCCNC(=N)N)NC(=O)[C@H]1CCCNC(=O)c1ccc(CNC(=O)CN2CCN(CC(=O)O)CCN(CC(=O)O)CCN(CC(=O)O)CC2)cc1` [gallium-68 labelled] gave a kidney uptake of ~6.3 %ID/g (C57BL/6 mice, no tumour, kidney; highest of vital organs).
`CC(C)C[C@H](NC(=O)[C@H](Cc1ccc(O)cc1)NC(=O)[C@@H](CCCNC(=N)N)NC(=O)[C@@H](CO)NC(=O)[C@H](Cc1ccccc1)NC(=O)[C@H](CC1CCCCC1)NC(=O)[C@H](CC(=O)O)NC(=O)CN1CCN(CC(=O)O)CCN(CC(=O)O)CCN(CC(=O)O)CC1)C(=O)N[C@@H](Cc1c[nH]c2ccccc12)C(=O)N[C@@H](CO)C(=O)O` [copper-64 labelled]: “activity excreted in urine” > 40 MBq (human cancer patients, urine; iv, dose not given, 0-1 h).
With `N=C(N)NCCC[C@@H]1NC(=O)[C@H](CCCCNC(=O)CNC(=O)CNC(=O)CNC(=O)CC[C@H](NC(=O)CNC(=O)CNC(=O)CNC(=O)CC[C@H](NC(=O)CN2CCN(CC(=O)O)CCN(CC(=O)O)CCN(CC(=O)O)CC2)C(=O)NCC(=O)NCC(=O)NCC(=O)N[C@@H](CCC(=O)NCC(=O)NCC(=O)NCC(=O)NCCCC[C@@H]2NC(=O)[C@@H](Cc3ccccc3)NC(=O)[C@H](CC(=O)O)NC(=O)CNC(=O)[C@H](CCCNC(=N)N)NC2=O)C(=O)NCC(=O)NCC(=O)NCC(=O)NCCCC[C@@H]2NC(=O)[C@@H](Cc3ccccc3)NC(=O)[C@H](CC(=O)O)NC(=O)CNC(=O)[C@H](CCCNC(=N)N)NC2=O)C(=O)NCC(=O)NCC(=O)NCC(=O)NCCCC[C@@H]2NC(=O)[C@@H](Cc3ccccc3)NC(=O)[C@H](CC(=O)O)NC(=O)CNC(=O)[C@H](CCCNC(=N)N)NC2=O)NC(=O)[C@@H](Cc2ccccc2)NC(=O)[C@H](CC(=O)O)NC(=O)CNC1=O` [indium-111 labelled] the tissue uptake was 0.91 ± 0.08 %ID/g (female athymic nu/nu mice, lungs; intravenous, 72 h).
For `CCCC[C@H](NC(=O)CNC(=O)CNC(=O)CN1CCN(CC(=O)O)CCN(CC(=O)O)CC1)C(=O)N[C@H]1CC(=O)NCCCC[C@@H](C(N)=O)NC(=O)[C@H](Cc2c[nH]c3ccccc23)NC(=O)[C@H](CCCNC(=N)N)NC(=O)[C@@H](Cc2ccccc2)NC(=O)[C@H](Cc2c[nH]cn2)NC1=O` [technetium-99m labelled], the tissue uptake was 0.53 ± 0.17 %ID/g (C57 mouse, liver; iv, 0.037 MBq, 24 h).
With `CCCC[C@H](NC(=O)COCCOCCNC(=O)CN1CCN(CC(=O)O)CCN(CC(=O)O)CC1)C(=O)N[C@H]1CC(=O)NCCCC[C@@H](C(N)=O)NC(=O)[C@H](Cc2c[nH]c3ccccc23)NC(=O)[C@H](CCCNC(=N)N)NC(=O)[C@@H](Cc2ccccc2)NC(=O)[C@H](Cc2c[nH]cn2)NC1=O` [copper-64 labelled] the tissue uptake was 0.4 ± 0.07 %ID/g (C57 mice, skin; intravenous, 0.37 MBq, 2 h).
With `CC(C)C[C@H](NC(=O)[C@H](Cc1ccc(O)cc1)NC(=O)[C@@H](CCCNC(=N)N)NC(=O)[C@@H](CO)NC(=O)[C@H](Cc1ccccc1)NC(=O)[C@H](CC1CCCCC1)NC(=O)[C@H](CC(=O)O)NC(=O)CN1CCCN2CCN(CCCN(CC(=O)O)CC2)CC1)C(=O)N[C@@H](Cc1c[nH]c2ccccc12)C(=O)N[C@@H](CO)C(=O)O` [copper-64 labelled] the tissue uptake was 6.2 ± 1.2 %ID/g (female NMRI nude mice, spleen; 1 h p.i.).

Excerpt of the above:
For `CCCC[C@H](NC(=O)CNC(=O)CNC(=O)CN1CCN(CC(=O)O)CCN(CC(=O)O)CC1)C(=O)N[C@H]1CC(=O)NCCCC[C@@H](C(N)=O)NC(=O)[C@H](Cc2c[nH]c3ccccc23)NC(=O)[C@H](CCCNC(=N)N)NC(=O)[C@@H](Cc2ccccc2)NC(=O)[C@H](Cc2c[nH]cn2)NC1=O` [technetium-99m labelled], the tissue uptake was 0.53 ± 0.17 %ID/g (C57 mouse, liver; iv, 0.037 MBq, 24 h).
